Measurements from different studies.
Every numbered part comes from another study and shows a few of its results, in no order. “And” joins repeats or separate records; there may be more than shown. ± marks the error that the study gave.
Sequence of UniProt P35372 (whole entry, looked up): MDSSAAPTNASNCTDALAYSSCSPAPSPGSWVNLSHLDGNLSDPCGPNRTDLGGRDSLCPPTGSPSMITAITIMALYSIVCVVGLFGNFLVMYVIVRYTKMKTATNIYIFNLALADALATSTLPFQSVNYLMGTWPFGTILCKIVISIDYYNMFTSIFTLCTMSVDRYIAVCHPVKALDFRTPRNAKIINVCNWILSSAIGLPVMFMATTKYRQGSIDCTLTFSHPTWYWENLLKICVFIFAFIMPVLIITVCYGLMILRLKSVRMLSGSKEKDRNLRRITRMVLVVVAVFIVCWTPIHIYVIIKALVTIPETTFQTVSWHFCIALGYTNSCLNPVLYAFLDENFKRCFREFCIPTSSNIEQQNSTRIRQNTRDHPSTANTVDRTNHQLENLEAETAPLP
Sequence of UniProt P10635 (whole entry, looked up): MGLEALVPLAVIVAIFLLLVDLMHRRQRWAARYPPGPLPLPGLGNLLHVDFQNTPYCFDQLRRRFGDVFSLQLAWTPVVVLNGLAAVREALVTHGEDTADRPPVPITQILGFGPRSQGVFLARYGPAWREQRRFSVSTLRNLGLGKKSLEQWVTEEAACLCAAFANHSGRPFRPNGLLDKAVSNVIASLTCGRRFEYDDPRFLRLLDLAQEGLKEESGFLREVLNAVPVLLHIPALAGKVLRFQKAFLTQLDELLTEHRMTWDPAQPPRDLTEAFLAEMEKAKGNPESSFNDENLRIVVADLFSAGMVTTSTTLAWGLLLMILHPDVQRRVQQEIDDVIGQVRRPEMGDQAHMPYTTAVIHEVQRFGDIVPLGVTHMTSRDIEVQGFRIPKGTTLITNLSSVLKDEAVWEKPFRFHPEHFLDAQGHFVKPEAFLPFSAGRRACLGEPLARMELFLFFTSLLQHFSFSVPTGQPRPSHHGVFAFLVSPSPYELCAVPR
Sequence of UniProt P05177 (whole entry, looked up): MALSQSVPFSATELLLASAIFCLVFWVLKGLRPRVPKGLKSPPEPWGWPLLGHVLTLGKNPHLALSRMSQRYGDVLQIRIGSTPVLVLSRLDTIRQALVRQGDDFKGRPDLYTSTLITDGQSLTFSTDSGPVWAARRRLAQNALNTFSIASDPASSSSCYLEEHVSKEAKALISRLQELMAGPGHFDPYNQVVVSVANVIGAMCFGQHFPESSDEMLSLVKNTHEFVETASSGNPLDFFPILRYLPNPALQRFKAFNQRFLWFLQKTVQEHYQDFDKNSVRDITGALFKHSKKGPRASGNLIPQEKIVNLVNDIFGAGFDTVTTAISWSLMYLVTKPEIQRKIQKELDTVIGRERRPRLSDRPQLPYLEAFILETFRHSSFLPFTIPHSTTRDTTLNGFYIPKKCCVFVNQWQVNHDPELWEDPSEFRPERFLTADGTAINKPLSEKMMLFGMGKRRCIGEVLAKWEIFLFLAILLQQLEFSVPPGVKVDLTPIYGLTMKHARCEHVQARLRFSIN
Sequence of UniProt Q695T7 (whole entry, looked up): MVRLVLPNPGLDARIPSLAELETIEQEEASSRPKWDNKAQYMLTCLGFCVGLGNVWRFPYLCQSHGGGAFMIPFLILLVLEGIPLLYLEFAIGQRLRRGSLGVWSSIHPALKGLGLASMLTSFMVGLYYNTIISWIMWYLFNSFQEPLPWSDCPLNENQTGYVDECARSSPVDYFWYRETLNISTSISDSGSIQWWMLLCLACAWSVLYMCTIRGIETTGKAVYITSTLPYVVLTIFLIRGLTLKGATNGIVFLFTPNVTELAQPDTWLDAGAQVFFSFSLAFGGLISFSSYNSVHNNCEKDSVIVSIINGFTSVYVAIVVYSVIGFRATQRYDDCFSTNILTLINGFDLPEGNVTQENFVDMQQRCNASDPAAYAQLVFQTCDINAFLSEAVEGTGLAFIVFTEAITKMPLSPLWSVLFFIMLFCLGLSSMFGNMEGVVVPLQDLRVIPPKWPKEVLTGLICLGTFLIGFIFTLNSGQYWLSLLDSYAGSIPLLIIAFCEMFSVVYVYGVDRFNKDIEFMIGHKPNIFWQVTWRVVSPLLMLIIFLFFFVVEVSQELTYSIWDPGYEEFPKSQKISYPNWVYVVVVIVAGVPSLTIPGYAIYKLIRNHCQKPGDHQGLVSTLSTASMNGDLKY
Sequence of UniProt P10632 (whole entry, looked up): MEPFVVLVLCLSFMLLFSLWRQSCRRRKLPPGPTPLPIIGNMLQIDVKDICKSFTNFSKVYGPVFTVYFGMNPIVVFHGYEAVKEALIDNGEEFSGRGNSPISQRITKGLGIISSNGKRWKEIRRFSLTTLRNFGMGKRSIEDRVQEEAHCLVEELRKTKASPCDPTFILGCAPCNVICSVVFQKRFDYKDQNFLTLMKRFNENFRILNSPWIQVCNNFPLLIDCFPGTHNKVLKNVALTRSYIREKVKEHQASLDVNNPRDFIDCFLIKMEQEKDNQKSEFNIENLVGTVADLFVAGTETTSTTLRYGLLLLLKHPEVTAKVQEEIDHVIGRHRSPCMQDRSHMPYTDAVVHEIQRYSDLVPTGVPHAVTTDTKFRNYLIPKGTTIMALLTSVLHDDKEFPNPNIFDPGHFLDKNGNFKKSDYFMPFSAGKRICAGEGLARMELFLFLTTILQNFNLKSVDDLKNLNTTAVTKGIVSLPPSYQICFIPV
Sequence of UniProt P33261 (whole entry, looked up): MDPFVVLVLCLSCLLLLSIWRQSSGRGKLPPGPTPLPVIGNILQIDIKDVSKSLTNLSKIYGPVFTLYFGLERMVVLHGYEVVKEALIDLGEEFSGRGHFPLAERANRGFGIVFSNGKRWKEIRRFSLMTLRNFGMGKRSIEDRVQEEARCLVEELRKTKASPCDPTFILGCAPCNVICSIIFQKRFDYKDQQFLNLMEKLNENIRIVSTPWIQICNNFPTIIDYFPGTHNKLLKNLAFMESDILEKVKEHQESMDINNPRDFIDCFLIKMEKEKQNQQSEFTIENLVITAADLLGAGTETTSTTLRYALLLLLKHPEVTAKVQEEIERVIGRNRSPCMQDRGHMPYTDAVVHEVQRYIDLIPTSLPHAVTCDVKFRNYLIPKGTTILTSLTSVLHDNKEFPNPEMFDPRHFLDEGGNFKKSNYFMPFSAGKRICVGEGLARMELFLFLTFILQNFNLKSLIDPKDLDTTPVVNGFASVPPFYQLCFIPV

Sample 1 — effect on: enzyme activity; sample: human liver microsomes; relative to: negative control
Compound: Cn1cc(-c2cccc(CN3CCC4(CC3)COc3c4ccc4c3CN([C@H]3CCC(=O)NC3=O)C4=O)c2)cn1
CYP2B6: Cytochrome P450 2B6 (CYP2B6, Homo sapiens, UniProt P20813)
Sequence of UniProt P20813 (whole entry, looked up): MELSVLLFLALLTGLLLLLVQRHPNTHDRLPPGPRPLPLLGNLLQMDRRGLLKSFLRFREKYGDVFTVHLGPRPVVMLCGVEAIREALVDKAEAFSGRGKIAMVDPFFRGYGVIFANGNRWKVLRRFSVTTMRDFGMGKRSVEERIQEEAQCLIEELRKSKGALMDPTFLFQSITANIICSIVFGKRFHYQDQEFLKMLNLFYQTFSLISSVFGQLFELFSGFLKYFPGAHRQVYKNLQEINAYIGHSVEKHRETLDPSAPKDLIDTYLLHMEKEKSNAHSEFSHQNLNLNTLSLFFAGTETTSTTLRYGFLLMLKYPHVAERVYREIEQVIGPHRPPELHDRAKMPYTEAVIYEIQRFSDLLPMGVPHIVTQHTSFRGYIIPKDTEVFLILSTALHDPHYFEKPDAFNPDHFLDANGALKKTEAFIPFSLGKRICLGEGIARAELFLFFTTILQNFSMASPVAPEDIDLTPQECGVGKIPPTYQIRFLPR
It gave 87.1% for remaining activity (CYP2C19 (Homo sapiens, UniProt P33261); 10.00 µM).
For Cytochrome P450 1A2 (CYP1A2, Homo sapiens, UniProt P05177); 1.11 µM: remaining activity read 85.8%.
CYP2B6; 1.11 µM — remaining activity: 89%.
CYP2B6; 10.00 µM — remaining activity: 76.7%.
Cytochrome P450 2D6 (CYP2D6, Homo sapiens, UniProt P10635); 0.04 µM — remaining activity: 104%.
The remaining activity was 115% (Cytochrome P450 2C8 (CYP2C8, Homo sapiens, UniProt P10632); 3.33 µM).

Further values, each from its own experiment
`C#CCN1C(=O)C(O)(C(=O)O)Oc2cc(F)ccc21` (stereo not drawn): “fresh weight inhibition” 59.7% and 59% and 58.1% (Arabidopsis thaliana; 2-week-old plants; foliar spray, 200 µg/mL, 20 days, postemergence; relative to: untreated).
`CC(C)(C)n1nc(-c2ccc(Cl)cc2)c2c(N)ncnc21` has a viability of 16.5% (L929; necroptosis protection, CCK-8; 0.062 µM, added: TNF-α-induced).
For `CCCCC[C@@H](O)CC(=O)N[C@@H]1C(=O)N[C@H](CCCNC(=N)N)C(=O)N[C@@H](CO)C(=O)NCC(=O)N(C)[C@H](Cc2ccccc2)C(=O)N[C@@H](CC(C)C)C(=O)N[C@H](CCCNC(=N)N)C(=O)N[C@@H](CCC(=O)O)C(=O)N[C@H](CCC(N)=O)C(=O)N[C@H](Cc2c[nH]c3ccccc23)C(=O)N[C@@H]([C@@H](C)CC)C(=O)N[C@@H]([C@@H](C)O)C(=O)O[C@@H]1C`, the viable cells was 200 CFU/mL and 300 CFU/mL (Staphylococcus aureus; USA300; 2 x MIC, 180 min).
For `N=C(N)NCCCCCCN1CCC23c4c5ccc(O)c4OC2c2nc4ccccc4cc2CC3(O)C1C5` (stereo not drawn), “normalised specific binding” read 96.1% and 110% and 146% (OPRM1 (Homo sapiens, UniProt P35372); competitor, radioligand binding; 100 pM).
With `O=[N+]([O-])c1ccc(C2=NOC3(NC(c4ccccc4)=NO3)N2c2ccccc2)cc1` (stereo not drawn) the IC50 was 5100 ± 110 nM (Plasmodium falciparum; parasite growth; W2mef multidrug-resistant; 72 h).
`CCCNC(=O)COc1ccc(Br)c(C)c1` has an IC50 of 70 ± 10 nM (SLC6A19 (Homo sapiens, UniProt Q695T7); inhibitor, FLIPR membrane potential; CHO-BC; added: 1.5 mM L-leucine).

Repeated from above (further values, each from its own experiment):
`C#CCN1C(=O)C(O)(C(=O)O)Oc2cc(F)ccc21` (stereo not drawn): “fresh weight inhibition” 59.7% and 59% and 58.1% (Arabidopsis thaliana; 2-week-old plants; foliar spray, 200 µg/mL, 20 days, postemergence; relative to: untreated).
`CC(C)(C)n1nc(-c2ccc(Cl)cc2)c2c(N)ncnc21` has a viability of 16.5% (L929; necroptosis protection, CCK-8; 0.062 µM, added: TNF-α-induced).
